# Measurements from different studies.
# Values joined by “and” are separate records of one study, mostly repeats; a detail may differ. ± marks the error that the study gave.
# DPP9: Dipeptidyl peptidase 9 (DPP9, Homo sapiens, UniProt Q86TI2)
# Sequence of UniProt Q86TI2 (whole entry, looked up): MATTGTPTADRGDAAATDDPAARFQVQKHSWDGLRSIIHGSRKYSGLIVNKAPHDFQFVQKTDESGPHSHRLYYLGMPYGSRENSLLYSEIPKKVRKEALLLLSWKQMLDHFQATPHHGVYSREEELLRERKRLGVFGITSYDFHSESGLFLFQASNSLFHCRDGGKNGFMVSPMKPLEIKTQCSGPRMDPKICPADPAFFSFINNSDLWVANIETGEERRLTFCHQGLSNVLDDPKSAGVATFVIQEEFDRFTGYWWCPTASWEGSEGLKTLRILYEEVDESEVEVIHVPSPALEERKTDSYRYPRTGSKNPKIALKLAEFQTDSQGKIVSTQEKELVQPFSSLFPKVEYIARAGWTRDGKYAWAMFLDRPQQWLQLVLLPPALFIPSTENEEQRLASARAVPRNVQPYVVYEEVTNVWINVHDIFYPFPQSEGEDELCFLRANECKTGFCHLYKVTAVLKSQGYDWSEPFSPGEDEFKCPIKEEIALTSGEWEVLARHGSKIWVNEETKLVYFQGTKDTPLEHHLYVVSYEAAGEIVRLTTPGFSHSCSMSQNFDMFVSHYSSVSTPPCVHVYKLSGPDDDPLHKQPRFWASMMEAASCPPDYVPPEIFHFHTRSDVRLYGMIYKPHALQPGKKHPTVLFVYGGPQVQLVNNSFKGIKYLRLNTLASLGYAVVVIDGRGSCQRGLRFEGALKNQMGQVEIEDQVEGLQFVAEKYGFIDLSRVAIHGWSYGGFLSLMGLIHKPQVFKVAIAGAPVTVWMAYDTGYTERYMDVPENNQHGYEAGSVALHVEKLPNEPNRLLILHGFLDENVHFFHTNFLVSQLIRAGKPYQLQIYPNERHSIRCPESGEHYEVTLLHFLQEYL
# CARM1: Histone-arginine methyltransferase CARM1 (CARM1, Homo sapiens, UniProt Q86X55)
# Sequence of UniProt Q86X55 (whole entry, looked up): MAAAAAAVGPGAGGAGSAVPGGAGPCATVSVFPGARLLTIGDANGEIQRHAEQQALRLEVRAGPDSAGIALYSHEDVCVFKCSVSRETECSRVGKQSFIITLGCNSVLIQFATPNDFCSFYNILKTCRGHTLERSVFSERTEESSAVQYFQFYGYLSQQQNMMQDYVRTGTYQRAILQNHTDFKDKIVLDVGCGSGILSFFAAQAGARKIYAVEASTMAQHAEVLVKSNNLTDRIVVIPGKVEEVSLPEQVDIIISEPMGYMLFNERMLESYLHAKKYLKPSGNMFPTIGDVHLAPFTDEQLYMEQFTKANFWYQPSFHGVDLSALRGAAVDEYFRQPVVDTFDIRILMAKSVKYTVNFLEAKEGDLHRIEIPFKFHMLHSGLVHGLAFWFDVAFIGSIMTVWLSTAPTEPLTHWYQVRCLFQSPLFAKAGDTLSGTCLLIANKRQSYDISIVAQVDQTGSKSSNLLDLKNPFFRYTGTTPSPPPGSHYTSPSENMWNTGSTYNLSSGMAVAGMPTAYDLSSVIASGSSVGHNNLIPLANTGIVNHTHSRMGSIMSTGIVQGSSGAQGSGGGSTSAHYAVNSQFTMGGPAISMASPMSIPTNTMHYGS
# CELA1: Chymotrypsin-like elastase family member 1 (CELA1, Sus scrofa, UniProt P00772)
# Sequence of UniProt P00772 (whole entry, looked up): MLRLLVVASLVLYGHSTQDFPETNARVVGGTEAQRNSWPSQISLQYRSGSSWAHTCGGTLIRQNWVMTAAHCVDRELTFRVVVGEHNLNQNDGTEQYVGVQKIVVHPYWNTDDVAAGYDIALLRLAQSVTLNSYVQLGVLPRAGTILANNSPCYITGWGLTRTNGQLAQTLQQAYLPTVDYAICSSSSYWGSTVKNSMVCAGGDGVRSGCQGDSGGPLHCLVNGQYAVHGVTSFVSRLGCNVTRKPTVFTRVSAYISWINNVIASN
# Sequence of UniProt P28566 (whole entry, looked up): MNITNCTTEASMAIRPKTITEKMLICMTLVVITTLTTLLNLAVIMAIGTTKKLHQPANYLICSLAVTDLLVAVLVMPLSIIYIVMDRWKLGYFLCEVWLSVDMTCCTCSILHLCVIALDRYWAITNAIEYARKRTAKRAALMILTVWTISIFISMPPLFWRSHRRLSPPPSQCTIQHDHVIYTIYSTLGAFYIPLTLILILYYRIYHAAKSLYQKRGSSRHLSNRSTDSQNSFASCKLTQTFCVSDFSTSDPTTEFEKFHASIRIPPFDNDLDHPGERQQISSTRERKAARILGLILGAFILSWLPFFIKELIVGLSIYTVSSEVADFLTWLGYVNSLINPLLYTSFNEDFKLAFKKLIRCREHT
# Sequence of UniProt P45983 (whole entry, looked up): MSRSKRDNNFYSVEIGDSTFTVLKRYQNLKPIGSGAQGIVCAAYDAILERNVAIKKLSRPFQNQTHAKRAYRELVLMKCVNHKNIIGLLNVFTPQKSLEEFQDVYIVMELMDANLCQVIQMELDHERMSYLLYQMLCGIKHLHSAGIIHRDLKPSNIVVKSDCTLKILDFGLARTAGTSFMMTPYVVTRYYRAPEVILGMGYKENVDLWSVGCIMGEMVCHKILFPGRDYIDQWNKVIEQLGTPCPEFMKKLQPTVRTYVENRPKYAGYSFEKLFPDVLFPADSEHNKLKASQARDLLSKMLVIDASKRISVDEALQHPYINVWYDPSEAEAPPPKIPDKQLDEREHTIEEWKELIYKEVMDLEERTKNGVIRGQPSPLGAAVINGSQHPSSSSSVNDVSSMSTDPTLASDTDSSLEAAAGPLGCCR
# Sequence of UniProt Q01959 (whole entry, looked up): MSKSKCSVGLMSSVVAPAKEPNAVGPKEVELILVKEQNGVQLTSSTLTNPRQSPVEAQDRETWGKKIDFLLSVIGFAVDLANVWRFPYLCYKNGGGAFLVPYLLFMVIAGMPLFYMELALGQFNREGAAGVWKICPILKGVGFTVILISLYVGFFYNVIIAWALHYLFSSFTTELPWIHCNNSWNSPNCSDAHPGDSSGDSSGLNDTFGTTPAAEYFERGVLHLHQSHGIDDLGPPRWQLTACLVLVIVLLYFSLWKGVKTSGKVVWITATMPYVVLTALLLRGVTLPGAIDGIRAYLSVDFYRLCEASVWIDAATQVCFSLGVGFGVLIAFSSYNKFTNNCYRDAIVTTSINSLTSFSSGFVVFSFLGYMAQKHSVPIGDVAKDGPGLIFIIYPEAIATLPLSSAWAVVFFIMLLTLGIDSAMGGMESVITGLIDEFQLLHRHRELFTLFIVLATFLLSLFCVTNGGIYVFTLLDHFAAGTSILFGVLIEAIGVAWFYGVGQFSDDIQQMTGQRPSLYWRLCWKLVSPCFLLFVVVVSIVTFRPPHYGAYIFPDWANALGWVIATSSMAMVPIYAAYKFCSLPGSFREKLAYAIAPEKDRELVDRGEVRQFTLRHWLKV
# Sequence of UniProt P18031 (whole entry, looked up): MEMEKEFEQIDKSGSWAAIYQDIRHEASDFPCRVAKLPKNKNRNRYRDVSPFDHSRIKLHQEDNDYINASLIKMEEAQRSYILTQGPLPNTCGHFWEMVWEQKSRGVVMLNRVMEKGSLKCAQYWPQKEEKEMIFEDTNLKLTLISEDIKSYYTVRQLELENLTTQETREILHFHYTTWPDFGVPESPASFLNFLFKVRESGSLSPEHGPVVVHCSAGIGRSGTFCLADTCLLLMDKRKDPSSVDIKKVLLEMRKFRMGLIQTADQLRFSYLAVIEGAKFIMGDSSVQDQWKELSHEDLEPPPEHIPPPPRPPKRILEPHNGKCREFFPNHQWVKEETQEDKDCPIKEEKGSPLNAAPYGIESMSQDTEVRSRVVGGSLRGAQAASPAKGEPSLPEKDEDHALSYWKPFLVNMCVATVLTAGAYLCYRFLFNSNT
# Sequence of UniProt Q02248 (whole entry, looked up): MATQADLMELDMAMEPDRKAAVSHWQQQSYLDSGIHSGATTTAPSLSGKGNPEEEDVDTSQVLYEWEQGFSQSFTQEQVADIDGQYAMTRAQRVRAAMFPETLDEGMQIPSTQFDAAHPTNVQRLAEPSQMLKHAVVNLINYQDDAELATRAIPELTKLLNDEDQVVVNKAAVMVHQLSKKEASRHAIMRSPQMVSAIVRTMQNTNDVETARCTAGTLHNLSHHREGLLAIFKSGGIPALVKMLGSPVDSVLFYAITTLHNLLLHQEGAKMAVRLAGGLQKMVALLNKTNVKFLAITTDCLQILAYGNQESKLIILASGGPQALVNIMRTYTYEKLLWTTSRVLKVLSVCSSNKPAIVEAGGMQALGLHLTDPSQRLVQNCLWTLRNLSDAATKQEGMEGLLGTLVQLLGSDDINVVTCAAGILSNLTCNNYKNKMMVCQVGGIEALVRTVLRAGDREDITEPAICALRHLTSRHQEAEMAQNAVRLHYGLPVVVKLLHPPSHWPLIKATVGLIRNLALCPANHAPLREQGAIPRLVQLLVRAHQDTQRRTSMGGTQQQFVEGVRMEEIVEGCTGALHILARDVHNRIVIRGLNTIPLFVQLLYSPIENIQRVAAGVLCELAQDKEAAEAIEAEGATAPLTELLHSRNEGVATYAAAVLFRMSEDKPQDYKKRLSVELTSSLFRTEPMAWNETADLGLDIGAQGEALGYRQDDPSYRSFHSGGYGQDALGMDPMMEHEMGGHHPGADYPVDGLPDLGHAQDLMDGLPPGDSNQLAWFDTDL
# Sequence of UniProt P35030 (whole entry, unmodified, looked up): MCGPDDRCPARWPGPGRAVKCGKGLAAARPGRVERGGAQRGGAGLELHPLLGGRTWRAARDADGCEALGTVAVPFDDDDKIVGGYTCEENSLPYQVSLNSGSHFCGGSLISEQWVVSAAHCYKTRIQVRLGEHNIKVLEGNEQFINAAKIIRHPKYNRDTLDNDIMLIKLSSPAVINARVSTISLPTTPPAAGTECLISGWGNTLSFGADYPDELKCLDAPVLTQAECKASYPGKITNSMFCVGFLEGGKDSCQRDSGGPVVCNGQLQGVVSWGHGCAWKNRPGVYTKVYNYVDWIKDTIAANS
SMILES,tested on,assay,system,conditions,scale,quantity,result
C=C1CC[C@H](OCCCNC(=O)CCOCCOCCOCCOCCOCCOCCOCCOCCOCCOCCOCCOCCOCCOCCOCCOCCOCCOCCOCCOCCOCCOCCOCCOCCOCCOCCOCCOCCOCCOCCOCCOCCOCCOCCOCCOCCNC(=O)CCN2C(=O)CC(SC[C@H](NC(=O)[C@H](Cc3ccccc3)NC(=O)[C@H](CC(N)=O)NC(=O)[C@H](Cc3c[nH]cn3)NC(=O)[C@@H](NC(=O)[C@H](CC(=O)O)NC(=O)[C@H](CCC(N)=O)NC(=O)[C@H](CC(C)C)NC(=O)[C@H](CCCCN)NC(=O)[C@H](CCCCN)NC(=O)[C@H](CCCNC(=N)N)NC(=O)[C@H](CC(C)C)NC(=O)[C@H](Cc3c[nH]c4ccccc34)NC(=O)[C@H](CCC(=O)O)NC(=O)[C@@H](NC(=O)[C@H](CCCNC(=N)N)NC(=O)[C@H](CCC(=O)O)NC(=O)[C@H](CCSC)NC(=O)[C@H](CO)NC(=O)[C@H](CC(N)=O)NC(=O)[C@H](CC(C)C)NC(=O)[C@H](Cc3c[nH]cn3)NC(=O)[C@H](CCCCN)NC(=O)CNC(=O)[C@H](CC(C)C)NC(=O)[C@H](CC(N)=O)NC(=O)[C@H](Cc3c[nH]cn3)NC(=O)[C@H](CCSC)NC(=O)[C@H](CC(C)C)NC(=O)[C@H](CCC(N)=O)NC(=O)[C@@H](NC(=O)[C@H](CCC(=O)O)NC(=O)[C@H](CO)NC(=O)[C@@H](NC(=O)[C@@H](N)CO)C(C)C)[C@@H](C)CC)C(C)C)C(C)C)C(=O)O)C2=O)C/C1=C/C=C1\CCC[C@]2(C)[C@@H]([C@H](C)CCCC(C)(C)O)CC[C@@H]12 (stereo partly shown),,,"male cynomolgus monkey, plasma","subcutaneous, 0.07 mg/kg, single dose",,half-life,27.7 h
COC1CN([C@H]2CC[C@H]([C@@]3(C)Oc4c(Cl)cc(C(=O)NCc5c(SC)cc(C)[nH]c5=O)c(C)c4O3)CC2)C1,,"RNA-seq, refers to: SLC25A27 mouse homolog","mouse, HT-1376 xenograft, whole blood",dose not given,relative to: vehicle,log2 fold change,0.0877
Cc1ncsc1-c1ccc(C(C)NC(=O)C2CC(O)CN2C(=O)C(NC(=O)CCCCCCCCCCN2CCCC(Nc3ncc(Cl)c(Nc4ccccc4S(=O)(=O)C(C)C)n3)C2)C(C)(C)C)cc1 (stereo not shown),22Rv1,"RNA-seq, refers to: ZNF493 mRNA",,concentration not given,relative to: DMSO,log2 fold change,-1.59
CCC1(CC)CC(=O)N(C2c3cc(C(=O)NC4c5ccccc5CC4O)ccc3OC2(C)COC)C(=N)N1 (stereo not shown),"plasmepsin X (Plasmodium knowlesi, UniProt A0A384K9C7)","enzyme activity, inhibitor, peptide cleavage",,,,Ki,9e-05 µM and 8.8e-05 µM
CCCC1(CC)C(=O)N(c2cccc(CN3CCN(Cc4ccc(Br)cc4)CC3)c2)C1=O,DPP9,"enzyme activity, inhibitor, fluorescence",,,,Ki,1.26 µM
Nc1ncc(-c2cc(-c3cnn(CC(F)(F)F)c3)ncc2F)nc1C(=O)NC1CNCC(F)C1 (stereo not shown),TAOK3,KINOMEscan,,1 µM,relative to: DMSO control,remaining binding,50%
CC(=O)N[C@@H](CO)C(=O)N[C@H](C(=O)NCC(=O)NCC(=O)N[C@@H](CCCCN)C(=O)N[C@@H](C)C(=O)N1CCC[C@H]1C(=O)N[C@@H](CCCNC(=N)NCCC[C@H]1O[C@@H](n2cnc3c(N)ncnc32)[C@H](O)[C@@H]1O)C(=O)N[C@@H](CCCCN)C(=O)N[C@@H](CCC(N)=O)C(=O)N[C@@H](CC(C)C)C(=O)N[C@@H](C)C(=O)N[C@H](C(=O)N[C@@H](CCCCN)C(=O)N[C@@H](C)C(=O)N[C@@H](C)C(N)=O)[C@@H](C)O)[C@@H](C)O (relative stereo),CARM1,"enzyme activity, inhibitor",,,,Ki,0.096 µM
Cc1nc(-c2c[nH]c(C(=O)Nc3ncccc3O)c2)cs1,"Trypsin-3 (Homo sapiens, UniProt P35030, H275D)","enzyme activity, inhibitor",,mixed inhibition model,,Ki,53.8 ± 0.1 µM
CC(=O)N1CCC[C@H]1C(=O)N[C@@H](CCCNC(=N)NCCC[C@H]1O[C@@H](n2cnc3c(N)ncnc32)[C@H](O)[C@@H]1O)C(=O)N[C@@H](CCCCN)C(=O)N[C@@H](CCC(N)=O)C(N)=O (relative stereo),CARM1,"enzyme activity, inhibitor",,,,Ki,0.13 µM
Cn1ccc2c(N3CCN(CCCCOc4ccc5c(c4)NC(=O)CC5)CC3)cccc21,"5-hydroxytryptamine receptor 1E (HTR1E, Homo sapiens, UniProt P28566)","ligand displacement, radioligand",,,,Ki,> 10 µM
N#CCC12CC1C(n1cnc3c(NC(C4CCC4)C4CC4)nc(I)nc31)C(O)C2O (stereo not shown),"Sodium-dependent dopamine transporter (SLC6A3, Homo sapiens, UniProt Q01959)","ligand displacement, radioligand",,,,Ki,5.4 µM
CC1(Cc2ccccc2)C(=O)N(c2cccc(CN3CCN(Cc4ccc(Br)cc4)CC3)c2)C1=O,DPP9,"enzyme activity, inhibitor, fluorescence",,,,Ki,0.202 µM
CC(C)OCCOCc1ccc(OCC(O)CN(N=O)C(C)C)cc1 (stereo not shown),Salmonella typhimurium,Ames test,TA1537,"50 µg/plate, 30 % rat S9",relative to: solvent control,revertant fold increase,1.3 fold
CC[C@H](C)[C@H](NC(=O)[C@@H](NC(=O)[C@H](CO)NC(=O)[C@@H](NC(=O)[C@@H]1CCCN1C(=O)[C@H](CC(C)C)NC(=O)[C@H](CCCNC(=N)N)NC(=O)[C@H](CO)NC(=O)[C@H](CC(N)=O)NC(=O)[C@H](C)N)[C@@H](C)O)[C@@H](C)CC)C(=O)O,"Na(+)/H(+) exchange regulatory cofactor NHE-RF1 (NHERF1, Homo sapiens, UniProt O14745)","ligand displacement, FP",,,,Ki,> 1000 µM
CC(C)Oc1ccc(B(O)O)c(F)n1,CELA1,"enzyme activity, inhibitor, absorbance",,,,Ki,382 µM
CCCc1c(O)c(O)cc(C(=O)O)c1COC1OC(CO)C(O)C(O)C1O (stereo not shown),"Catenin beta-1, armadillo repeat domain (Mus musculus, UniProt Q02248)","binding to HD2, inhibitor, ELISA",,added: His-HD2 with GST-ARD,,Ki,0.9 ± 0.8 µM
C=C(NC(=O)c1csc(-c2nc3c(cc2O)-c2nc(cs2)C(=O)NC(C(C)O)C(=O)NC(=C(C)OC)c2nc(cs2)C(=O)NC2c4nc(cs4)C(=O)NC(COC(=O)c4c5c6c(cccc6n4O)COC(=O)C(OC4CC(C)(O)C(N(C)C)C(C)O4)C2OC5)c2nc-3cs2)n1)C(N)=O (stereo not shown),,,"cynomolgus monkey, plasma","intravenous, 9 mg/kg, single dose, infusion",,half-life,5.92 h
OB(O)c1cnn(-c2cccc(Cl)c2)c1,CELA1,"enzyme activity, inhibitor, absorbance",,,,Ki,3330 µM
O=S(=O)(O)O/N=C(/CCc1ccccc1)S[C@@H]1O[C@H](CO)[C@@H](O)[C@H](O)[C@H]1O,"Tyrosine-protein phosphatase non-receptor type 1 (PTPN1, Homo sapiens, UniProt P18031)","enzyme activity, inhibitor",,,,Ki,7.02 µM
COC(=O)[C@]1(C(C)C)C=C(C(=O)Nc2cccc(C(=O)Nc3ccc(Nc4nccc(-c5cccnc5)n4)c(C)c3)c2)C(=O)CC1,"Mitogen-activated protein kinase 8 (MAPK8, Homo sapiens, UniProt P45983)",SPR two-step binding model,,wild-type protein surface,,Ki,0.017 µM
CCCC1(C)C(=O)N(c2cccc(CN3CCN(Cc4ccc(Br)cc4)CC3)c2)C1=O,DPP9,"enzyme activity, inhibitor, fluorescence",,,,Ki,> 2 µM
Cc1nn(-c2cccc(N)c2)c(=O)c2cnc(Nc3ccc(N4CCNCC4)cc3)nc12,"Ribosomal protein S6 kinase alpha-6 (RPS6KA6, Homo sapiens, UniProt Q9UK32)","enzyme activity, inhibitor",,,,IC50,1.08 µM
CCC1(CC)C(=O)N(c2cccc(C(=O)N3CCN(Cc4ccc(Br)cc4)CC3)c2)C1=O,DPP9,"enzyme activity, inhibitor, fluorescence",,,,Ki,0.095 µM
C=CC(=O)Nc1cccc(Cn2ncc3cnc(Nc4cnn(CCOC)c4)nc32)c1,ULK3 human,"binding, KINOMEscan",,100 nM,lower = stronger binding,percent of control,77%
CCCCCCCCCCCC=O,"uncharacterized protein (Spodoptera exigua, UniProt F1CEY0)",binding,,added: 1-NPN,,Ki,5.03 µM

# Excerpt of the above:
SMILES,tested on,assay,system,conditions,scale,quantity,result
C=CC(=O)Nc1cccc(Cn2ncc3cnc(Nc4cnn(CCOC)c4)nc32)c1,ULK3 human,"binding, KINOMEscan",,100 nM,lower = stronger binding,percent of control,77%
CCCCCCCCCCCC=O,"uncharacterized protein (Spodoptera exigua, UniProt F1CEY0)",binding,,added: 1-NPN,,Ki,5.03 µM
Cc1ncsc1-c1ccc(C(C)NC(=O)C2CC(O)CN2C(=O)C(NC(=O)CCCCCCCCCCN2CCCC(Nc3ncc(Cl)c(Nc4ccccc4S(=O)(=O)C(C)C)n3)C2)C(C)(C)C)cc1 (stereo not shown),22Rv1,"RNA-seq, refers to: ZNF493 mRNA",,concentration not given,relative to: DMSO,log2 fold change,-1.59
